Published values of several laboratories.
Lines come from different studies, so protocols differ. ± marks the error that the study gave.
Cell line: A2780

| SMILES | assay | setting | how to read | quantity | value |
| --- | --- | --- | --- | --- | --- |
| [N]#[Os]([Cl])([Cl])[Cl].c1ccc(-c2ccnc3c2ccc2c(-c4ccccc4)ccnc23)cc1 | cytotoxicity | with: salubrinal 10 µM | baseline: compound alone | IC50 fold increase | 13.3 fold |
| COC(=O)CC[C@@H](NC(=O)[C@@H](Cc1ccc(OP(=O)(O)O)cc1)NC(=O)[C@@H](Cc1ccccc1)NC(=O)[C@@H](Cc1ccccc1)NC(=O)Cc1ccc2ccccc2c1)C(=O)OC | cell growth or viability | – | – | IC50 | > 200 µM |
| N.N.O=C([O][Pt]([Cl])([Cl])[O]C(=O)c1ccc(P(c2ccccc2)c2ccccc2)cc1)c1ccc(P(c2ccccc2)c2ccccc2)cc1.[Cl][Au].[Cl][Au] | cell growth or viability, resazurin | 72 h | – | IC50 | 3.45 µM |
| Cc1cc(C)c(-n2ccn(-c3c(C)cc(C)cc3C)c2=[Se])c(C)c1.[Cl][Ag] | cell growth or viability, MTT | 72 h | – | IC50 | 0.4 µM |
| Cc1ccnc(-c2cc(C)ccn2)c1.[C-]#[O+].[C-]#[O+].[C-]#[O+].[Re+] | cell viability | – | – | IC50 | 3.5 ± 2.8 µM |
| Cc1cc(C)c(N2CCN(c3c(C)cc(C)cc3C)C2=[Se])c(C)c1.[Cl][Au] | cell growth or viability, MTT | 72 h | – | IC50 | 0.7 µM |
| COc1ccnc(-c2cc(OC)ccn2)c1.[C-]#[O+].[C-]#[O+].[C-]#[O+].[Re+] | cell viability | – | – | IC50 | 2.2 ± 1.8 µM |
| N.N.O=C([O][Pt]([OH])([Cl])[Cl])c1ccc(P(c2ccccc2)c2ccccc2)cc1.[Cl][Au] | cell growth or viability, resazurin | 72 h | – | IC50 | 4.58 µM |
| CC1(C)OB(c2ccc(COC(=O)N(Cc3cccc(CN4CCCCC4)c3)[c-]3cccc3)cc2)OC1(C)C.[Fe+2].c1cc[cH-]c1 | cell growth or viability, MTT | 48 h | – | IC50 | 5.6 µM |
| NC1CCCCC1N.O=C1[O][Pt]([O]C(=O)c2ccc(P(c3ccccc3)c3ccccc3)cc2)([O]C(=O)c2ccc(P(c3ccccc3)c3ccccc3)cc2)[O]C1=O.[Cl][Au].[Cl][Au] | cell growth or viability, resazurin | 72 h | – | IC50 | 9.65 µM |
| CC(C)C[C@@H](NC(=O)CCNc1ccc([N+](=O)[O-])c2nonc12)C(=O)N[C@H](CC(C)C)C(=O)N[C@H](CC(C)C)C(=O)N[C@H](CC(C)C)C(=O)N[C@H](Cc1ccc(OP(=O)(O)O)cc1)C(=O)O | MTT | 200 µM, 24 h | – | viability | > 60% |

A few entries again:
| SMILES | assay | setting | how to read | quantity | value |
| --- | --- | --- | --- | --- | --- |
| [N]#[Os]([Cl])([Cl])[Cl].c1ccc(-c2ccnc3c2ccc2c(-c4ccccc4)ccnc23)cc1 | cytotoxicity | with: salubrinal 10 µM | baseline: compound alone | IC50 fold increase | 13.3 fold |
